{"data": "Experimental data of several laboratories", "note": "Protocols differ between the studies behind these lines. ± marks the error that the study gave."}
{"Compound": "COc1ccc2c3c1O[C@H]1C(=O)CC[C@@]4(O)[C@@H](C2)N(CC2CCC2)CC[C@]314", "medium": "octanol/phosphate buffer", "time": "1 h", "pH": "pH 7.38", "setting": "ionic strength 0.15 M", "logD": 1.66}
{"Compound": "COc1ccccc1[C@@H](NS(=O)(=O)c1cc2ccc(O)nc2cc1Cl)C(=O)N(CC(=O)NCCn1cc(COCCOCCOCC(=O)N[C@H](C(=O)N2C[C@H](O)C[C@H]2C(=O)NCc2ccc(-c3scnc3C)cc2)C(C)(C)C)nn1)Cc1cccs1", "method": "fast-gradient HPLC", "pH": "pH 7.4", "logD": 2.3}
{"Compound": "Oc1ccc2c3c1O[C@H]1[C@@H](O)CC[C@H]4[C@@H](C2)N(CC2CCC2)CC[C@@]341", "medium": "octanol/phosphate buffer", "time": "1 h", "pH": "pH 7.45", "setting": "ionic strength 0.15 M", "logD": 0.75}
{"Compound": "CC[C@H](C)[C@@H]1NC(=O)[C@H](CCSC)NC(=O)[C@H](Cc2c[nH]c3ccccc23)NC(=O)[C@H](CC(N)=O)NC(=O)[C@@H](NC(=O)CCOCCOCCOCCNC(=O)CN2CCN(CC(=O)O)CCN(CC(=O)O)CC2)CSSC[C@@H](C(=O)O)NC(=O)[C@H](CCC(=O)O)NC(=O)[C@H](CCCCN)NC(=O)[C@H](CC(N)=O)NC1=O [gallium-68 labelled]", "method": "shake-flask", "medium": "1-octanol/PBS", "pH": "pH 7.4", "logD": "-1.36 ± 0.52"}
{"Compound": "COc1ccc2c3c1O[C@H]1[C@@H](O)CC[C@H]4[C@@H](C2)N(CCc2ccccc2)CC[C@@]341", "medium": "octanol/buffer", "time": "1 h", "pH": "pH 7.4", "logD": 2.19}
{"Compound": "COc1ccccc1C(NS(=O)(=O)c1cc2ccc(O)nc2cc1Cl)C(=O)N(CC(=O)NCCn1cc(COCCOCCOCCOCCNc2cccc3c2C(=O)N(C2CCC(=O)NC2=O)C3=O)nn1)Cc1cccs1 (mixture of isomers)", "method": "fast-gradient HPLC", "pH": "pH 7.4", "logD": 2.5}
{"Compound": "C=CCN1CCC23c4c5ccc(OC(=O)c6ccc(NCc7cn(CCCCCCCCCCCC)nn7)cc6)c4OC2C(=O)CCC3(O)C1C5 (stereo not drawn)", "pH": "pH 7.4", "logD": 2}
{"Compound": "O=C(CN1C(=O)C2(CCN(C(=O)c3cnc4[nH]ncc4c3)CC2)c2c(Cl)cccc21)NCC(F)(F)F", "pH": "pH 7.4", "logD": 2.53}
{"Compound": "COc1ccc2c3c1O[C@H]1[C@H](O)CC[C@@]4(O)[C@@H](C2)N(C)CC[C@]314", "medium": "octanol/water, borax buffer", "time": "1 h", "pH": "pH 9.22", "setting": "ionic strength 0 M", "logD": 0.69}
{"Compound": "O=C(CN1C(=O)C2(CCN(C(=O)c3cnc4[nH]ncc4c3)CC2)c2c(F)cccc21)NCC(F)(F)F", "pH": "pH 7.4", "logD": 1.97}
{"Compound": "COc1ccc2c3c1O[C@H]1[C@@H](O)C=C[C@H]4[C@@H](C2)N(CC2CCC2)CC[C@@]341", "medium": "octanol/phosphate buffer", "time": "1 h", "pH": "pH 7.45", "setting": "ionic strength 0.15 M", "logD": 1.45}
{"Compound": "N#Cc1cccc2c1C1(CCN(C(=O)c3cnc4[nH]ncc4c3)CC1)C(=O)N2CC(=O)NCC(F)(F)F", "pH": "pH 7.4", "logD": 2.6}
{"Compound": "COc1ccccc1[C@@H](NS(=O)(=O)c1cc2ccc(O)nc2cc1Cl)C(=O)N(CC(=O)NCCn1cc(COCCCCC(=O)N[C@H](C(=O)N2C[C@H](O)C[C@H]2C(=O)NCc2ccc(-c3scnc3C)cc2)C(C)(C)C)nn1)Cc1cccs1", "method": "fast-gradient HPLC", "pH": "pH 7.4", "logD": 2.4}
{"Compound": "Cn1ccc([C@H](CO)Nc2nc(N3C[C@@H]4C[C@H]3CO4)c3cc(-c4ccccc4)oc3n2)n1", "method": "chromatographic", "logD": "3.4 ± 0.2"}
{"Compound": "O=C(CN1C(=O)C2(CCN(C(=O)c3ccc4[nH]ncc4c3)CC2)c2c(Br)cccc21)NCC(F)(F)F", "pH": "pH 7.4", "logD": 3.27}
{"note": "Excerpt of the above:"}
{"Compound": "COc1ccc2c3c1O[C@H]1[C@@H](O)C=C[C@H]4[C@@H](C2)N(CC2CCC2)CC[C@@]341", "medium": "octanol/phosphate buffer", "time": "1 h", "pH": "pH 7.45", "setting": "ionic strength 0.15 M", "logD": 1.45}
{"Compound": "COc1ccc2c3c1O[C@H]1[C@H](O)CC[C@@]4(O)[C@@H](C2)N(C)CC[C@]314", "medium": "octanol/water, borax buffer", "time": "1 h", "pH": "pH 9.22", "setting": "ionic strength 0 M", "logD": 0.69}
